# Assay results collected from several papers.
# A part holds a random share of what one study measured. ± marks the error that the study gave.
# Chain of UniProt Q9H4B4 (whole entry, looked up): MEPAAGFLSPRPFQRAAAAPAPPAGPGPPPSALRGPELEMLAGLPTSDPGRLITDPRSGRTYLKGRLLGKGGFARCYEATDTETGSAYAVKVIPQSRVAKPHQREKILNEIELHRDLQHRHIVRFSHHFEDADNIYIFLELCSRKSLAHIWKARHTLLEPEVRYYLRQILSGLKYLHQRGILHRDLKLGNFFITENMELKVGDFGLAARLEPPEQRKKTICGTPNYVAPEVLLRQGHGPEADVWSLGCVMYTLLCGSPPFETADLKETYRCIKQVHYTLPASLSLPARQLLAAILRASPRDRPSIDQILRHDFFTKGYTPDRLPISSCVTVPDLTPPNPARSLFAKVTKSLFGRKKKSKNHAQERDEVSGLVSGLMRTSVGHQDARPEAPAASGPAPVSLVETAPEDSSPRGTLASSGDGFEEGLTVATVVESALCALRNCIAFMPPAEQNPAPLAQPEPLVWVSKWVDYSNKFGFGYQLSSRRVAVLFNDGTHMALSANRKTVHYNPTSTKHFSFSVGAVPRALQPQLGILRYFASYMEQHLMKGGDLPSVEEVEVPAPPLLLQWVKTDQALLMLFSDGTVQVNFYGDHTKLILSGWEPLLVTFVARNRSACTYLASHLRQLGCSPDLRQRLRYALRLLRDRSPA
# Chain of UniProt P35968 (whole entry, looked up): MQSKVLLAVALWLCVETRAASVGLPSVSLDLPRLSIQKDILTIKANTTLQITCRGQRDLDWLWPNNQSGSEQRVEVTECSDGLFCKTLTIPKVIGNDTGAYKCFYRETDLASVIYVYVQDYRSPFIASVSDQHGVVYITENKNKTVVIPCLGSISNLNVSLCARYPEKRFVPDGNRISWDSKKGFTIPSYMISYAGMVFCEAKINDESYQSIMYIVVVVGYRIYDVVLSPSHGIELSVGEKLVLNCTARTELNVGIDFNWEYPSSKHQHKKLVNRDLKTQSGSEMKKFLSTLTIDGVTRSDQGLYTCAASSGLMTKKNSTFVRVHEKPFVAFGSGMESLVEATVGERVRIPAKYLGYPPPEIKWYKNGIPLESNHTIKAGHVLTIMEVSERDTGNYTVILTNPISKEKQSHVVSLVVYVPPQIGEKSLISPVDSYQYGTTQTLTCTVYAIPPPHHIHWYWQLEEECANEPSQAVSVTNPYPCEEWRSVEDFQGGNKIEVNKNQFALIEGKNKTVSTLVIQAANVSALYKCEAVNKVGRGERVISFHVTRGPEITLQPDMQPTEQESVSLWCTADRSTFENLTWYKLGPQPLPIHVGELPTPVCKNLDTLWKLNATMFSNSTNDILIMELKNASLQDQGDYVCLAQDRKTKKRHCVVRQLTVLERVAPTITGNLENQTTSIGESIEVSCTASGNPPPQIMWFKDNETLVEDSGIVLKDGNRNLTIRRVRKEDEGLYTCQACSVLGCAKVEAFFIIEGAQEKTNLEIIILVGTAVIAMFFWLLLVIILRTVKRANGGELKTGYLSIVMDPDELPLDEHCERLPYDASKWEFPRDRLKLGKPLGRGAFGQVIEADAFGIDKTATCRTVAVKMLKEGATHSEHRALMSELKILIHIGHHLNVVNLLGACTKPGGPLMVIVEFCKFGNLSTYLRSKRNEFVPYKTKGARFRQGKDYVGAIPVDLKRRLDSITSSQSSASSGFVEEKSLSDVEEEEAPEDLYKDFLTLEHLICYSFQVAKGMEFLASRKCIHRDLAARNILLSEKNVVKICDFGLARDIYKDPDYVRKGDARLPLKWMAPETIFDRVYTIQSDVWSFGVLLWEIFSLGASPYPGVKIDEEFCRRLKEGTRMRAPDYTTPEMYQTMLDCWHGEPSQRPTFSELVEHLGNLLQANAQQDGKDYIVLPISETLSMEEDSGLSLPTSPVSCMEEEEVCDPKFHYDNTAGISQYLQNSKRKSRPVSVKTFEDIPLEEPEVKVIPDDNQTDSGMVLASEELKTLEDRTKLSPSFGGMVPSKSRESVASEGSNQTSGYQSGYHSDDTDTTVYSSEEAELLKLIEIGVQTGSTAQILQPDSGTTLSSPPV
# Chain of UniProt P51956 (whole entry, looked up): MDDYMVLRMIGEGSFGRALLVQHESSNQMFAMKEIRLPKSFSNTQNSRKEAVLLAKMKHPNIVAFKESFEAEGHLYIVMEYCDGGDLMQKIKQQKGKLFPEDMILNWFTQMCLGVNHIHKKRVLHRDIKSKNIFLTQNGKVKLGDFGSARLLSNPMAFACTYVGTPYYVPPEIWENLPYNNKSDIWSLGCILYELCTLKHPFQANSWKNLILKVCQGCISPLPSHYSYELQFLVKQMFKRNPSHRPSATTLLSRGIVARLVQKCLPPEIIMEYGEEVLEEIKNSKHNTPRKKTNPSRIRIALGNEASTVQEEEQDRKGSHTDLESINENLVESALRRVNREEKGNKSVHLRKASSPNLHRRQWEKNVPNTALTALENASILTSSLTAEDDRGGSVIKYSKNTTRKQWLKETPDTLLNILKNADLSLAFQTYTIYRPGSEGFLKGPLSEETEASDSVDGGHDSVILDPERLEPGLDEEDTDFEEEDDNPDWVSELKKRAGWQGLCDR
# Chain of UniProt Q13237 (whole entry, looked up): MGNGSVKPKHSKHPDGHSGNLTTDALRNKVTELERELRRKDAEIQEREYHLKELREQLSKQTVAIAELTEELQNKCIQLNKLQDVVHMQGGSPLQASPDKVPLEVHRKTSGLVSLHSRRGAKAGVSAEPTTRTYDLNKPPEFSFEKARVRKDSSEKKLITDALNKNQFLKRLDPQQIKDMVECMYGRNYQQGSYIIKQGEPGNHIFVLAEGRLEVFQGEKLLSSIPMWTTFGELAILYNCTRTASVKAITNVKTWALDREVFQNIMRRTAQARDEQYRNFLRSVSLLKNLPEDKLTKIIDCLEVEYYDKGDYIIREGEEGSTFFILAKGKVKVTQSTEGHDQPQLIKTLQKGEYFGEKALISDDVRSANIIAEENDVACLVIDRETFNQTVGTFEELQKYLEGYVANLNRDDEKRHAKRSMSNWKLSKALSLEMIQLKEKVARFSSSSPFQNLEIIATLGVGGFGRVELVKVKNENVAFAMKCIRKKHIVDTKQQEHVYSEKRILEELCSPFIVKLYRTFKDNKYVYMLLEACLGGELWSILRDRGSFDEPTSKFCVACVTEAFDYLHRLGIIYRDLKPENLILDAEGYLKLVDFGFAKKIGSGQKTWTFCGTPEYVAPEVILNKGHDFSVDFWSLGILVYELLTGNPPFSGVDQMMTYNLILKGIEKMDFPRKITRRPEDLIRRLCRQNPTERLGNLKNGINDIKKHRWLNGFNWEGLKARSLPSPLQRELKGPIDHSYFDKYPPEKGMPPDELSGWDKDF
# Chain of UniProt Q9HAZ1 (whole entry, looked up): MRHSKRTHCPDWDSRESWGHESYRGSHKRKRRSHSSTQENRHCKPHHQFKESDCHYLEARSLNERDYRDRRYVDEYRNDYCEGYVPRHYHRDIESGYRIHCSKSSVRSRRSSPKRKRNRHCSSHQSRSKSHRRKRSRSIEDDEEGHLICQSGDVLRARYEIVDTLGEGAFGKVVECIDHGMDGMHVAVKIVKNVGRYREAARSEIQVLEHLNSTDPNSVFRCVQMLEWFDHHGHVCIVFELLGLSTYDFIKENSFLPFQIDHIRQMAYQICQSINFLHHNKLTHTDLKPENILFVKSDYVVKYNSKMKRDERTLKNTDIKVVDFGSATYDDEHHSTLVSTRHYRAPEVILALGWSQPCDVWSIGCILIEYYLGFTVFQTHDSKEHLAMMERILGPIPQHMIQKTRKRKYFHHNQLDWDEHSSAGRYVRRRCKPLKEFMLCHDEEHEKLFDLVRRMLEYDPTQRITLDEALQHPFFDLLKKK
# Chain of UniProt P48729 (whole entry, looked up): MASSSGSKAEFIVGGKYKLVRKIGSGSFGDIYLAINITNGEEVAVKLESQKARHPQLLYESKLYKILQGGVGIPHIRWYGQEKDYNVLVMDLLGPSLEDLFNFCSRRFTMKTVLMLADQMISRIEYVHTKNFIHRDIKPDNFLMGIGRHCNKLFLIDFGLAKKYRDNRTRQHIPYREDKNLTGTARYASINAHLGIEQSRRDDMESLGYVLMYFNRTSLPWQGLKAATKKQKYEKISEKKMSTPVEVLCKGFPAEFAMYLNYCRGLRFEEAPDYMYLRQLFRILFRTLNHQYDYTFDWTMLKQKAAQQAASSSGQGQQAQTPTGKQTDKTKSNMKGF
# Chain of UniProt Q02750 (whole entry, looked up): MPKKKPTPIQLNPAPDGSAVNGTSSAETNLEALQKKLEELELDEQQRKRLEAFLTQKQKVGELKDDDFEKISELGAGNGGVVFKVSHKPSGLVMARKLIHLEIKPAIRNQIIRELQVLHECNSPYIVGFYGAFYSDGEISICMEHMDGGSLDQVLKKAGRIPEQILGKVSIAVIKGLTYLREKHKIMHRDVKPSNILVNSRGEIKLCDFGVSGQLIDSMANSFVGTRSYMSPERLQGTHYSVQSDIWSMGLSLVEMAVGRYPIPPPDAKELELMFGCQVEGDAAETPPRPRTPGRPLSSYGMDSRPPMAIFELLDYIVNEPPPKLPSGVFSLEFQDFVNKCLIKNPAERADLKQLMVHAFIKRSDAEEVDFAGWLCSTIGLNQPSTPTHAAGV

# Set 1 — observed: enzyme activity; mode: inhibitor; concentration: 0.5 µM; relative to: control
# SMILES: CSc1nc(-c2ccnc(N[C@@H](C)c3ccccc3)c2)c(-c2ccc(F)cc2)[nH]1 (racemic)
target,remaining activity [%]
"MAP2K1 (Homo sapiens, UniProt Q02750)",93.9
"ROCK1 (Homo sapiens, UniProt Q13464)",91.7
"KDR (Homo sapiens, UniProt P35968)",83.5
"MAPK1 (Homo sapiens, UniProt P28482)",102
"TXK (Homo sapiens, UniProt P42681)",93.1
"PNCK (Homo sapiens, UniProt Q6P2M8)",92.9
"NEK3 (Homo sapiens, UniProt P51956)",94.7
"PLK3 (Homo sapiens, UniProt Q9H4B4)",99.7
"CLK4 (Homo sapiens, UniProt Q9HAZ1)",79.2
"PRKG2 (Homo sapiens, UniProt Q13237)",102
"MET (Homo sapiens, UniProt P08581)",116
"MAPK11 (Homo sapiens, UniProt Q15759)",41.6
"CAMK4 (Homo sapiens, UniProt Q16566)",106
"MINK1 (Homo sapiens, UniProt Q8N4C8)",89.6

# Set 2
# SMILES: COc1cc(C(=O)N2CCC(N3CCN(C)CC3)CC2)ccc1Nc1ncc2c(n1)N(C)c1ccccc1C(=O)N2C
target,test,conditions,remaining activity
MEKK1,kinase activity,1 µM,87 ± 2%
CAMKKb,kinase activity,10 µM,53 ± 2%
"PLK1 (Homo sapiens, UniProt P53350)",,1 µM,73 ± 5%
CSK,kinase activity,1 µM,70%

# Set 3 — mode: agonist
# Target: Beta-1 adrenergic receptor (ADRB1, Homo sapiens, UniProt P08588)
# Chain of UniProt P08588 (whole entry, looked up): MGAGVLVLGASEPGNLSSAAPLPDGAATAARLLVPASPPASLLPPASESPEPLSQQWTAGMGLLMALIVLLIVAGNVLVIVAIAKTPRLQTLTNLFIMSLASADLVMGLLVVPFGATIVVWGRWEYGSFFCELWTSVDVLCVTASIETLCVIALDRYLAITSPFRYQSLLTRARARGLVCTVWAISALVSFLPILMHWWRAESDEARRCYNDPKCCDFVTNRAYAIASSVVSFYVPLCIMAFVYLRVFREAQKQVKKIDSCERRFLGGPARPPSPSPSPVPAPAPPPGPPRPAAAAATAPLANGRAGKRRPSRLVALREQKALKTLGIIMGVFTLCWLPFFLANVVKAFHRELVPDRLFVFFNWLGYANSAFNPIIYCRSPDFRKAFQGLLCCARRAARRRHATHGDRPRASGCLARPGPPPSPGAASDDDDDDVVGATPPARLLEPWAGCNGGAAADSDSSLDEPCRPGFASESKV
Structure (SMILES),EC50 [µM]
CC(C)SCC[C@@H](N)[C@H](O)C(=O)NNC(=O)c1cccc(Cl)c1,≥ 100
CCN(CC)C(=O)c1cc(-c2cnc(C(C)C)nc2)nc2c(C)c(C)ccc12,≥ 100
COc1ccc(Cc2nnc(SCc3cc(=O)oc4ccc5ccccc5c34)o2)cc1,≥ 100
c1ccc(-c2cccc(-n3ccnc3-c3cc4n(n3)CCCNC4)c2)nc1,≥ 100
Cc1ccccc1-n1ncc2c(NCC(C)O)ncnc21 (stereo not shown),≥ 100
CCc1nc(Nc2cccc(C(O)CO)c2)c2ccsc2n1 (stereo not shown),≥ 100

# Set 4 — observed: cell-free assay; method: competition with immobilised ligand; concentration: 1 µM
# SMILES: O=C1CCc2cc(Nc3cc(OC4CCOCC4)c([N+](=O)[O-])cc3Cl)ccc2N1
target,remaining binding [%]
"EPHA5 (Homo sapiens, UniProt P54756)",93
"CSNK1A1 (Homo sapiens, UniProt P48729)",100
"BRSK1 (Homo sapiens, UniProt Q8TDC3)",100
"DYRK1A (Homo sapiens, UniProt Q13627)",80
"KIT (Homo sapiens, UniProt P10721, D816V)",100
"PIK3CA (Homo sapiens, UniProt P42336, H1047Y)",100
"MAP2K7 (Homo sapiens, UniProt O14733)",100
